Experimental data pooled from the literature.
Each numbered part is a random draw from the data of one study; scales do not carry over between parts. Positions count from the first letter of the parent shown.

Series 1
Target: CCND3, cyclin fold, Cln2 fusion (human)
Technique: yeast growth competition, sequencing
Medium: yeast
Notes: weak parent motif
Relative to: not given
Direction: higher = stronger binding
Starting sequence: viral docking peptide; PGASRRLFGSSAD
Substitution | normalised enrichment score
PGASRRLFGSAAD [S11A] | 0.123
PGASRRLLGSSAD [F8L] | 0.402
PGASRRLFGASAD [S10A] | 0.0611
AGASRRLFGSSAD [P1A] | 0.0977
PGASARLFGSSAD [R5A] | 0.155
PGASRRLAGSSAD [F8A] | 0.0891

Series 2
Target: UBE2D2 UBC core domain (UniProt P62837)
Chain of UniProt P62837 (whole entry, looked up): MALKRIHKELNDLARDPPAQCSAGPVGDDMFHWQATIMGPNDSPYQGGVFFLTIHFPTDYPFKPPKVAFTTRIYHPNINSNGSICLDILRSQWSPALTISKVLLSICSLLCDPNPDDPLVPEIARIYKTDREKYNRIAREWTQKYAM
Technique: yeast two-hybrid
Medium: yeast
Notes: mostly zero background
Relative to: not given
Direction: higher = stronger interaction
B1: PHF7 RING domain (UniProt Q9BWX1); chain IQHGHVGEESCILCCEDLSQQSVENIQSPCCSQAIYHRKCIQKYAHTSAKHFFKCPQCNNRKEFPQEML
B2: RNF43 RING domain (UniProt Q68DV7); chain SGSSCSSAPVCAICLEEFSEGQELRVISCLHEFHRNCVDPWLHQHRTCPLCMFNITEGDSFS
B3: TRIM38 RING domain (UniProt O00635); chain STKKMMEEATCSICLSLMTNPVSINCGHSYCHLCITDFFKNPSQKQLRQETFCCPQCRAPFHMDSLRP
Molecule | lacZ reporter activity
B1 (PHF7 RING domain) | 0
LKQVSIRENCCSLCCDEVADTQLKPCGHSDLCMDCALQLETCPLCRKEIVSRIRQI (RSPRY1 RING domain (UniProt Q96DX4)) | 0
SYEDKSNDFVCPICFDMIEEAYMTKCGHSFCYKCIHQSLEDNNRCPKCNYVVDNIDHLY (COP1 RING domain (UniProt Q8NHY2)) | 0
B2 (RNF43 RING domain) | 7810
B3 (TRIM38 RING domain) | 0

Series 3
Target: HLA class I histocompatibility antigen, A alpha chain, allele A*80:01 (Homo sapiens, UniProt P04439)
Read-out: peptide-MHC binding
Molecule type: peptide
Concentration: concentration not given
Molecule | binding
KLWASFFQG | inactive
VLRACWNEK | inactive
KSRQGDTKV | inactive
PHDPDFLVL | inactive
ETVWPFFYA | inactive

Other studies, line by line
Technique: cross-linking MS
Molecule | partner | system | conditions | measurement | value
PPRC1 (Homo sapiens, UniProt Q5VV67) | RSBN1 (Homo sapiens, UniProt Q5VWQ0) | cell fractions | with: DSSO | cross-linked residues | T767 to T243
NDUFS8 (Homo sapiens, UniProt O00217) | NDUFA12 (Homo sapiens, UniProt Q9UI09) | cell fractions | with: DSSO | cross-linked residues | K88 to K43
EMC8 (Homo sapiens, UniProt O43402) | EMC2 (Homo sapiens, UniProt Q15006) | – | hits only | interaction screen | cross-linked
SMS (Homo sapiens, UniProt P52788) | SMARCE1 (Homo sapiens, UniProt Q969G3) | cell fractions | with: DSSO | cross-linked residues | K192 to K228

Some of these lines once more (series 3):
Molecule | binding
ETVWPFFYA | inactive
KLWASFFQG | inactive
